Measurements pooled from the literature.
A part holds a random share of what one study measured. Substitutions count along the parent as printed.

Series 1
Target: BATF3, bZIP domain (human)
Technique: DHFR protein complementation
Sample: yeast
Setting: single substitutions, most at no-binding floor
Baseline: wild-type JUN-FOS pair
Direction: higher = stronger binding
Measurement: binding fitness
Starting sequence: JUN, bZIP domain (human); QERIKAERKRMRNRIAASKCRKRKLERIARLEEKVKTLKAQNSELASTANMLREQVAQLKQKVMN; partner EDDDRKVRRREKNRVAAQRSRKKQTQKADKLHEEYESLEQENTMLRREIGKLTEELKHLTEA
S43N: 0.224 natural log
L31P: 0.0326 natural log
V56Y: -0.0478 natural log
T37F: 0.19 natural log
E54S: 0.136 natural log
T48C: 0.139 natural log
E54G: 0.275 natural log
A40H: 0.217 natural log
K34P: -0.269 natural log
K34F: 0.0256 natural log
V35L: 0.152 natural log
K36F: 0.112 natural log
T48G: -0.12 natural log
Q55A: 0.0962 natural log
M51F: 0.161 natural log
E32W: 0.0068 natural log

Series 2
Target: Sal-like protein 4, full length isoform A (SALL4, Homo sapiens, UniProt Q9UJQ4, residues 1-1053)
Sequence of UniProt Q9UJQ4 (whole entry, looked up): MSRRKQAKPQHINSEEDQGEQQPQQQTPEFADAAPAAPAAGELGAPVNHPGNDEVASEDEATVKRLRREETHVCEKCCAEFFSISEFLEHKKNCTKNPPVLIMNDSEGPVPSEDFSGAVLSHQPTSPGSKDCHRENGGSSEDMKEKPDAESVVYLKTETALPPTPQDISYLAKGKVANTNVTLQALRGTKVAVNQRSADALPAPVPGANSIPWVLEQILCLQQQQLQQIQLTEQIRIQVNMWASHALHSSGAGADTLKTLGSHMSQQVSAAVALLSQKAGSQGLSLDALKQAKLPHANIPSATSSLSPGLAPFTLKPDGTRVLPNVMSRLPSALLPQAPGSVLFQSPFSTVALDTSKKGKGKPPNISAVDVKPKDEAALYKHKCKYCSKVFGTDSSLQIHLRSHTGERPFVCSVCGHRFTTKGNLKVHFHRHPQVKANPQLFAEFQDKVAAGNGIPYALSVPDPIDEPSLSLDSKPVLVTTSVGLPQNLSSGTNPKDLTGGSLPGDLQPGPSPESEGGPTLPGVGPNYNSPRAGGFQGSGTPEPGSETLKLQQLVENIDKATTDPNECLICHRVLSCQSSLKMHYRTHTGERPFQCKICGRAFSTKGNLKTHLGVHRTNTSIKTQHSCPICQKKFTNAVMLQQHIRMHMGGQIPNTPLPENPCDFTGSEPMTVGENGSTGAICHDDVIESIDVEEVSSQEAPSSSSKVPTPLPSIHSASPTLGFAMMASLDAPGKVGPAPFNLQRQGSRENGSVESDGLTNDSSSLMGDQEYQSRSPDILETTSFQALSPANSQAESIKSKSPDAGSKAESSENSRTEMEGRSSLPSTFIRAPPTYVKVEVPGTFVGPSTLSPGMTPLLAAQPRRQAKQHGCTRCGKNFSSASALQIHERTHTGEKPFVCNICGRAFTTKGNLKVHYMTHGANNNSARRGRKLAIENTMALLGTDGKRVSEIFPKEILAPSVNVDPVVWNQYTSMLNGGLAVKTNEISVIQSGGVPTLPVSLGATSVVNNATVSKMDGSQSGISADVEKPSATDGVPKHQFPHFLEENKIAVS
Technique: universal PBM
Form: double-stranded DNA, one strand shown
Sample: in vitro
Concentration: 600 nM
Setting: 8-mer, flanks averaged, mean of replicates
Direction: higher = stronger binding
Measurement: E-score
GTTAGGGA: -0.0272
GGCAACCC: -0.333
AGCCACGC: -0.103
CCAAGCCA: -0.123
AACCCAGC: -0.218
AGGAGAGA: 0.101
CTGTAGCC: -0.165
CCGACCAG: -0.311
CCCGAGGG: -0.335
GGCTTAAA: 0.0161
GCTAACAC: -0.146
CTCCTCTA: -0.0477
CATAAGTC: 0.238
AGTATCCA: 0.0105
AAGTTCGT: -0.0651
AAGGATTC: -0.0814
CACAATCC: 0.0268
CCCACGTA: -0.0616
GCTTCTAA: -0.123
TTCCTAAA: 0.229
ATAATGCA: 0.279
CGACTCTC: -0.151
ACCAACTA: 0.129
GTAGCGAC: -0.213
ATGAGAAC: 0.179

Series 3
Target: ABI1, truncated, D143A, DHFR fusion (Arabidopsis thaliana)
Technique: DHFR PCA, deep sequencing
Sample: yeast
Setting: methotrexate growth selection, single substitutions
Added: (+)-ABA 4.8 µM
Baseline: wild-type fitted maximum
Direction: higher = stronger binding
Measurement: relative binding score
Starting sequence: PYL1, truncated, DHFR fusion (Arabidopsis thaliana); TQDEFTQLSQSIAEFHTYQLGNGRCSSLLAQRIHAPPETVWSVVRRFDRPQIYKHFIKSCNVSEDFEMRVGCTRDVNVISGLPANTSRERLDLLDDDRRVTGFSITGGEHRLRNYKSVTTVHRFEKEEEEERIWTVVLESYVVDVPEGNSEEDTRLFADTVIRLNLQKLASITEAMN; partner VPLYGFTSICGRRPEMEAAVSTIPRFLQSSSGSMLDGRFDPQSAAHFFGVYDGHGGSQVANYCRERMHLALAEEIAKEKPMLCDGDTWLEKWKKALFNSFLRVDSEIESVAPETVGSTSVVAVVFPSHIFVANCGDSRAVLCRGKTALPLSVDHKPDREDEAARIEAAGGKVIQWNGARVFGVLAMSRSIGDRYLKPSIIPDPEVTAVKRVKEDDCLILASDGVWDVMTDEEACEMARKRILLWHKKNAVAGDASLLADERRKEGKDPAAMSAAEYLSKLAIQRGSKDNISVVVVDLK
F47C: 1.83%
T120D: -1.55%
D144M: -4.83%
R90W: -2.94%
T106D: 8.71%
S80V: 2.07%
F103Y: 56%
N177R: 71%
L166S: -10%
G23F: 20.4%
L8I: 54.6%
S42L: 28%
V40Y: 2.9%
D97W: 17.1%
R123L: 53.6%
R74S: -8.7%
F124C: 72.4%

Series 4
Target: Max dimerization protein 1, bHLH-zipper, MAX partner unstated (MXD1, Homo sapiens, UniProt Q05195, residues 56-136)
Technique: protein-binding microarray
Form: double-stranded DNA, one strand shown
Sample: in vitro
Concentration: not given
Setting: k-mer, scored over probes, only values ≥0.25
Direction: higher = stronger binding
Measurement: E-score
Residues (chain): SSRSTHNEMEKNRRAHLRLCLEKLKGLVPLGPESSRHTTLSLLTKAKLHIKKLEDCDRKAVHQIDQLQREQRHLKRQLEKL
CATGGTAA: 0.304
CCATATGC: 0.352
ATGCGGTA: 0.263
GGTGGGTA: 0.363
GCATGCTA: 0.354
ATGCCCAC: 0.291
CACCCCAC: 0.317
GCATGCCA: 0.319
AACACGGG: 0.286
ATTCCCCC: 0.279
CCTCATGC: 0.364
ATGGCATG: 0.34
CCACGCTC: 0.306
ATAGCGTG: 0.38
CCACGCCC: 0.378
CATGTGGA: 0.454

Series 5
Target: CCND3, cyclin fold, Cln2 fusion (human)
Technique: yeast growth competition, sequencing
Sample: yeast
Setting: weak parent motif
Baseline: not given
Direction: higher = stronger binding
Measurement: normalised enrichment score
Starting sequence: CDKN1B docking peptide (human); PSACRNLFGPVDH; partner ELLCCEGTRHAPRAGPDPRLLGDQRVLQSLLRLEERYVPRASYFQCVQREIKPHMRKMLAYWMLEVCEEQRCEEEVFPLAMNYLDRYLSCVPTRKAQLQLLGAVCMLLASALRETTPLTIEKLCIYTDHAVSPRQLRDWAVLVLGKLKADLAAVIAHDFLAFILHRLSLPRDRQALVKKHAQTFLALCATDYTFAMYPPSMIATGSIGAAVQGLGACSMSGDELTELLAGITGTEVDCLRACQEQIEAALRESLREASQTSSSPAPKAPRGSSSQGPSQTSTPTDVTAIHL
PSACRLLFGPVDH [N6L]: 0.129
PSACRNLFQPVDH [G9Q]: 0.137
PSACRNDFGPVDH [L7D]: 0.0912
ESACRNLFGPVDH [P1E]: 0.0744
PFACRNLFGPVDH [S2F]: 0.0695
PSKCRNLFGPVDH [A3K]: 0.0959
PSACRNLFGPTDH [V11T]: 0.0778
PSACRNLFGPVDE [H13E]: 0.096
PSACRNRFGPVDH [L7R]: 0.113
PSACRNLFGPVFH [D12F]: 0.0852
PSACTNLFGPVDH [R5T]: 0.0601
PSACRNLFGPVKH [D12K]: 0.104
PSAMRNLFGPVDH [C4M]: 0.0568
PSACRNLFSPVDH [G9S]: 0.0912
PSACRNLFGFVDH [P10F]: 0.133
PSACRNLFGPPDH [V11P]: 0.0861
PSACRNLFGPVDY [H13Y]: 0.105
PSACRNEFGPVDH [L7E]: 0.141
PSACRNTFGPVDH [L7T]: 0.0836

Series 6
Target: CEP164, C-terminal peptide (human)
Technique: DHFR complementation, deep sequencing
Sample: yeast
Setting: single substitutions, model-inferred values
Baseline: wild type
Direction: higher = weaker binding
Measurement: binding free energy change
Starting sequence: PDZK1, PDZ domain 2 (human); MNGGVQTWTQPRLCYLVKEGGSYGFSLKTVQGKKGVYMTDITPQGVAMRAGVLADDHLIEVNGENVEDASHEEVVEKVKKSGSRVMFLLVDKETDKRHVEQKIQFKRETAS; partner HNRVKVYRF
Y23N: 1.47 kcal/mol
T7R: -0.241 kcal/mol
Q101G: -0.174 kcal/mol
L88E: 0.862 kcal/mol
S111E: -0.0895 kcal/mol
T42F: 0.441 kcal/mol
G20I: 0.597 kcal/mol
V30Y: 0.182 kcal/mol
E60L: 0.257 kcal/mol
M48Y: -0.22 kcal/mol
E72I: 0.515 kcal/mol
H57P: 0.389 kcal/mol
K18N: 0.321 kcal/mol
H98V: -0.0965 kcal/mol
V90T: -0.132 kcal/mol
K28S: -0.241 kcal/mol
L27A: 0.295 kcal/mol
A69Q: -0.117 kcal/mol
E76N: 0.159 kcal/mol

Series 7
Target: RNA binding protein fox-1 homolog 2, RRM domain, GST-SBP tag (RBFOX2, Homo sapiens, UniProt O43251-10, residues 100-194)
Technique: RNA Bind-n-Seq
Form: RNA
Sample: in vitro
Concentration: 365 nM
Setting: natural RNA segment, single round, ends assumed
Baseline: no-protein control
Direction: higher = stronger binding
Measurement: RBNS enrichment (R)
Constant ends, left off below: GGGAGUUCUACAGUCCGACGAUC … UGGAAUUCUCGGGUGCCAA
Construct (chain): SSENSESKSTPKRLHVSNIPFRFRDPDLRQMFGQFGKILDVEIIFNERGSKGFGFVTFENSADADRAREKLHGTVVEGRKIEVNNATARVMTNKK
ACCGAAUGAUCAGCUGCAUAGCAAAGGACUGUGCCGCUGGCAUAUUGAUCUCAGAUAAAAACUUGUGGACUUGGCUGACACUCUCCCUUGCCCUGAAAUCUCAAUGUCUA: 0.357
UUGGCUGGGGGUGGCUGGGAAAGGCCCCUCUGGGAAAGAGACAGUUUUACUGAGUCAGAUGGUGGAAAGACAGAUGUCUCUAUACUUUCUUAACAAGCCACUCUGUCCCA: 0.245
AUUGGAGCCCUCUCUCCCAUUCUGUGAUGAGUACAGCAGAGACCUUCCUGCUUUUUACUGGGGACUCCAGAUUUUCCCCAAACUUGCUUCUGUUGAGAUUUUUCCCUCAC: 0.72
CACAGUGUGAACCAACUCAGACUUUGAGAGAAAAAGAAUGCAGGAGUGGAAUAACCAAGUCAAAAACCAUGUCAAAACUAUCCUCUGGGGGGUGCUGAGGGUGCUAUGGA: 4.11
CCUCAGAUCAGCCCCUUAAAAUGAGUUCUAGAGCAGGUCUUCUGUUCCAGAAGGGGAGAAGCAUAGAGGGCCUGUGAGCUCACGUGUGUUCUUUGUCAUAGGGGUGAAAA: 0.837
CCCAGGGCUAGCCUUCACUGCCCUAGUGGCAGCGCUUCCCAGGGGUGCUCUCUGGCUCCCAGAUGUCUAGGGCUCCAGACUCCAAGAGGGCUGAGCCUUCUCUUCUGUCU: 0.146
GGGCAUGAACUGAGGAUUGUAUUGAAGACUGUGGUUUUUAAGCCUCGCUGUAAAGAAAGGCCAUGCUUUUGUGUUAGUGGAGACAGUCUAGAGUUGCUCAGAAUCUUGUA: 0.913
AGUUAAAGGCCAUGCUUACAGCUUAGAAAUGAAGCCUUAAGCUGCAUCAAGUUACGAAGUGAUUAAUUUCCUUCUCAGCAAACCUCCGGGAGGUUCCAGAAUGAGUUCUU: 0.297
AGGUGACUGCCAAAUAAUAUUUGAAGUCAUCUGUCUCUUUGUAAAUUAUUUUAUAUGACCUAUAAAUUUAAAAAUGUUUUUCAGUGAGUGCUUUUAACAAACUUAAGCUU: 1.02
AUUAUAGGUGCCCAGGCUGAGGUGAAGAGGCCUGGGGGCCCUGCCUUCCGGGCGCUCCUGGACCCUGGGGCAAACCUGUGACCCUUUUCUACUGGAAUAGAAAUGAGUUU: 0.384
GCUGAGAGCACUGGUGGGUUUGCAGGAGGCUGGGUGCUUCAGCCUACCCUUCCCCUUCCCCUCCCUUCCCUCUGCAAGGCUCAAGCCUGGUUUGCACUCAGUGUAGAAGA: 0.406
UUUGUUUACUAAAUACCUGUGAAGAAAUACCAUUAAAAAACUAUUUGGUUCUGAAUUCUUACUAGAAGGUGGUCUUUUGAAGUUAGUCCUUUCGGUACUUCUCAGAUGCC: 0.622

Further values, each from its own experiment
PhoQ, residues 284 288 289 292 302 303 TLASMF
fold induction (PhoP, residues 12 14 15 18 19 DLLYY (Escherichia coli, UniProt P23836); Sort-seq, refers to: YFP reporter; E. coli; PhoQ-PhoP variant library, added: 10 µM Mg2+; baseline: high Mg2+ state, higher = stronger signaling): 0.849

A few entries again (series 5):
PSACRLLFGPVDH [N6L]: 0.129
PSACRNLFQPVDH [G9Q]: 0.137
PSACRNDFGPVDH [L7D]: 0.0912
ESACRNLFGPVDH [P1E]: 0.0744
PFACRNLFGPVDH [S2F]: 0.0695
PSKCRNLFGPVDH [A3K]: 0.0959
PSACRNLFGPTDH [V11T]: 0.0778
PSACRNLFGPVDE [H13E]: 0.096
PSACRNRFGPVDH [L7R]: 0.113
PSACRNLFGPVFH [D12F]: 0.0852
PSACTNLFGPVDH [R5T]: 0.0601
PSACRNLFGPVKH [D12K]: 0.104
PSAMRNLFGPVDH [C4M]: 0.0568
PSACRNLFSPVDH [G9S]: 0.0912
PSACRNLFGFVDH [P10F]: 0.133
PSACRNLFGPPDH [V11P]: 0.0861
PSACRNLFGPVDY [H13Y]: 0.105
PSACRNEFGPVDH [L7E]: 0.141
PSACRNTFGPVDH [L7T]: 0.0836
